Measurements gathered from unrelated publications.
Sequence of UniProt P08069 (whole entry, looked up): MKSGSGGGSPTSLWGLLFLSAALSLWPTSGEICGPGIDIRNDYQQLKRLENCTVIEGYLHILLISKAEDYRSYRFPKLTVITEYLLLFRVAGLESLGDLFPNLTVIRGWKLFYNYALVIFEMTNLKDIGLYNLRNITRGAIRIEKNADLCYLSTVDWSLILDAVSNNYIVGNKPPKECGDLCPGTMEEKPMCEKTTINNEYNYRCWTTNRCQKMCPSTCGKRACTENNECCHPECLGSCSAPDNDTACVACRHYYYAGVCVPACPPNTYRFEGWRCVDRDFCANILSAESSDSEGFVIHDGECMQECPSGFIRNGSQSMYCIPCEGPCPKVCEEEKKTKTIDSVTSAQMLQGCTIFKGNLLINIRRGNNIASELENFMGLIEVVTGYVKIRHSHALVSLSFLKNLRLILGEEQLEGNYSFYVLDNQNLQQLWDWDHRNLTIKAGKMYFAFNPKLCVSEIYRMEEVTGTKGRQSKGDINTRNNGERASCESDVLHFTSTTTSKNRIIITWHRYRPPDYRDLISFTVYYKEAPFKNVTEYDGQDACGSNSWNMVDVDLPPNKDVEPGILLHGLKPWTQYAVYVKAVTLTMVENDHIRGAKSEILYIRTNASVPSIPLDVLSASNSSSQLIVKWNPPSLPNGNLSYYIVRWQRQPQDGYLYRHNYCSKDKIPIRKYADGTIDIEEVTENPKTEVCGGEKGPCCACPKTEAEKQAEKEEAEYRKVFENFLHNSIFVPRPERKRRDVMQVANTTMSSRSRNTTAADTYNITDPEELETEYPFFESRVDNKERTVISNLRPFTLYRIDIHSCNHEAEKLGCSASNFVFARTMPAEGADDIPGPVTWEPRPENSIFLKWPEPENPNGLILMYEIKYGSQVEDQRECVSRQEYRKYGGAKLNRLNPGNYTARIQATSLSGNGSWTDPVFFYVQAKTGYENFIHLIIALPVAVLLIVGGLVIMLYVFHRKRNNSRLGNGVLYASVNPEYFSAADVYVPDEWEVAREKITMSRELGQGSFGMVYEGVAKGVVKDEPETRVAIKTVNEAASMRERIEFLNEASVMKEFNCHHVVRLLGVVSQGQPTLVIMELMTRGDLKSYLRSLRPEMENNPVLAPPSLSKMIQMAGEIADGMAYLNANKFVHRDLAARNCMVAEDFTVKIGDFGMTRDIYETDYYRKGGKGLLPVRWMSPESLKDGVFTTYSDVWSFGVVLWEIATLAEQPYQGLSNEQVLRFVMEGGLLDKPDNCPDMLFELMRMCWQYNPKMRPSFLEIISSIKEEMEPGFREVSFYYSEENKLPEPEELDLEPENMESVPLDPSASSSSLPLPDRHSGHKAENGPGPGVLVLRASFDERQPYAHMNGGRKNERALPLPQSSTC

`C[C@]1(CO)Cc2ncn(-c3ccc(C#N)c(Cl)c3)c2C(=O)O1` has a half-life of 6 h (healthy Japanese adults, plasma; 40 mg once daily, after first dose, multiple dose).
`C[C@H]1CN(c2n[nH]c3nc(N[C@H]4CC[C@H](NS(=O)(=O)CCC(F)(F)F)CC4)ncc23)CCO1` gave a relative abundance of 0.99 (IGF1R (Homo sapiens, UniProt P08069); inhibitor, Kinobeads competition profiling; 0.8 µM; relative to: vehicle).
Under “urinary cobalt creatinine-corrected”, `O.O.O.O.O.O.[Cl-].[Cl-].[Co+2]` is recorded as 0.82 µg/µmol creatinine (rat female, urine; oral, 10 mg/kg single, day 1).
The AUC(0-inf) of `CCC[C@@](N)(CO)CCc1ccc(OCCCCCC(C)C)cc1` is reported as 1860 nM·h (male hound dog, plasma; oral, 2.5 mg/kg, capsule, geometric mean).
For `CCc1ccc(CC/C=C/c2ccc3c(c2)C(=O)CC3)cc1`, “mean platelet volume” read 10.7 fL (Sprague-Dawley rat, female, blood; oral, 30 mg/kg/day, 14 days).
Under “treatment-related adverse event incidence”, `COc1ccc(-c2c(-c3ccc(C#N)c(F)c3)nc(N3CCC(N)CC3)n(C)c2=O)cc1F` is recorded as 67% (measured: Thrombocytopenia; relapsed/refractory marginal zone lymphoma patients; oral, 60 mg, any grade, dose expansion).
Under “incidence of AEs excluding prolonged aPTT”, `C[C@@H](NC(=O)N1C(=O)[C@H](Cc2ccnc(N)c2)[C@H]1C(=O)O)C1CCCCC1` is recorded as 62.5% (healthy adult Chinese volunteers; continuous intravenous infusion, 2.25 mg/kg/h, 5-day infusion, CTCAE 5.0 grading).
`CO[C@H]1C[C@@H]2CC[C@@H](C)[C@@](O)(O2)C(=O)C(=O)N2CCCC[C@H]2C(=O)O[C@H]([C@H](C)C[C@@H]2CC[C@@H](OC(=O)NCCOCCOCCOCCOCCOCCOCCOCCOCCC(=O)N3CCc4cc(Cn5nc(-c6ccc7oc(N)nc7c6)c6c(N)ncnc65)ccc4C3)[C@H](OC)C2)C[C@@H](O)[C@H](C)/C=C(\C)[C@@H](O)[C@@H](OC)C(=O)[C@H](C)C[C@H](C)/C=C/C=C/C=C/1C` has a vomiting incidence of 41.7% (patients with advanced solid tumours; intravenous, 12 mg weekly, any grade).
With `NCCOCC(=O)N1CCCC(C(=O)NCc2nc(-c3ccc(-c4ccc(F)cc4)cc3)cs2)C1` (stereo not drawn) the urinary excretion was 3.2% (Sprague-Dawley rat, male; intravenous, 1 mg/kg, 24 h; relative to: dose).
`O=c1ccc2ncc(=O)n3c2n1C[C@H]3CN1CCC(NCc2cc3c(cn2)OCCC3)CC1` gave a tlag of 0 h (healthy human participants, plasma; oral, dose not given, median, together with: rifampicin).
The bound fraction of `CC(C)CC(=O)OC[C@H]1O[C@@](C#N)(c2ccc3c(N)ncnn23)[C@H](O)[C@@H]1O` is reported as 0.893 (plasma protein binding; rat plasma; 90 µM).
Under “subjects with cold sweat”, `O=C(Nc1ccccc1)C1CCN(C(=O)Oc2cccnc2)CC1` is recorded as 0% (adverse event reporting; healthy women; oral, 20 mg, 7 days).
Under “daily dermal uptake, percentile”, `CC(C)(C)c1cc(-n2nc3ccccc3n2)c(O)c(C(C)(C)C)c1` is recorded as 20.8 ng/kg body weight/day (exposure assessment; human, age 3-6 years; concentration not given, spray sunscreen, 95th percentile).
For `COc1cc2c(Oc3ccc4[nH]c(C)cc4c3F)ccnc2cc1OCC1(N)CC1`, “grade 3 gingival bleeding” read 0% (paediatric recurrent refractory sarcoma; 8 mg).
For `O=C(c1ccc(F)c(F)c1Nc1ccc(I)cc1F)N1CC(O)([C@@H]2CCCCN2)C1`, “AE causing dose modification” read 46% (human patients; oral, dose not given, dose escalation, suspension).

For quick reference, copied from above:
`CO[C@H]1C[C@@H]2CC[C@@H](C)[C@@](O)(O2)C(=O)C(=O)N2CCCC[C@H]2C(=O)O[C@H]([C@H](C)C[C@@H]2CC[C@@H](OC(=O)NCCOCCOCCOCCOCCOCCOCCOCCOCCC(=O)N3CCc4cc(Cn5nc(-c6ccc7oc(N)nc7c6)c6c(N)ncnc65)ccc4C3)[C@H](OC)C2)C[C@@H](O)[C@H](C)/C=C(\C)[C@@H](O)[C@@H](OC)C(=O)[C@H](C)C[C@H](C)/C=C/C=C/C=C/1C` has a vomiting incidence of 41.7% (patients with advanced solid tumours; intravenous, 12 mg weekly, any grade).
